Results of several laboratories.
Each numbered part is a random draw from the data of one study; scales do not carry over between parts.

Sample 1 — method: RNA Bind-n-Seq; form: RNA; sample: in vitro; concentration: not given; reference: input RNA pool; reading: higher = stronger binding
Target: RING finger protein unkempt homolog, zinc fingers 1-6, GST-SBP tag (UNK, Homo sapiens, UniProt Q9C0B0, residues 30-357)
Chain of UniProt Q9C0B0 (30-357, looked up): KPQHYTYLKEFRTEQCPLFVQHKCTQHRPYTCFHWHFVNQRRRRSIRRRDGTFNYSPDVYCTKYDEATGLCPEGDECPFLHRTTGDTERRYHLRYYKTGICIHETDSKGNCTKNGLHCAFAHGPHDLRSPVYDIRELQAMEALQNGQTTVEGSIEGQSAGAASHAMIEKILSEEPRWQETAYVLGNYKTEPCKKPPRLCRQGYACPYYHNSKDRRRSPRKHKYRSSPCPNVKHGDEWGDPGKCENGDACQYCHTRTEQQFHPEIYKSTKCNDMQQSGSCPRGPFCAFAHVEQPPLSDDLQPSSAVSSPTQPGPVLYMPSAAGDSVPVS
Notes: RNA with constant flanks, human-mouse chimeric sites, ends assumed
For `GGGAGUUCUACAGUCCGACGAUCAGAAAGCAAAACUUGGAAAGAUUUAAGAAAGGAGACGUAAGAUUCUUGAUUUGCACAGAUGUAGCUGCUAGAGGAAUUGAUAUCCAUGGCGUUCCUUAUGUGAUCAACGUCACCCUGCCUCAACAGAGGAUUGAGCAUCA`, the bound/input enrichment was 0.292 ratio.
`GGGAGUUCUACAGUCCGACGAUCGGAAGUACAAUGAUGGAGAUUGAUGGUGACAAAGGCAAGCAGGGCGGGCCCACCUACUACAUAGAUACUAAUGCUCUCCGCGUGCCCAGGGAGAACAUGGAGGCCAUCUCACCACUCAAGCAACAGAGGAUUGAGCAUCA` gave a bound/input enrichment of 0.88 ratio.
`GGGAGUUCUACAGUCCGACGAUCCAGCGCCGAGGCCGCGGUUUCCCCCUGGGCCUCCCCAGCCGCCGCCAUGGGCAUCAAAUUUUUAGAAGUUAUUAAACCAUUCUGUGCAGUUCUACCAGAAAUUCAGAAACCGGAAAGGAACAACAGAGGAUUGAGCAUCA` gave a bound/input enrichment of 5.96 ratio.
`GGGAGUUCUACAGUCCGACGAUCCCUGCUCAGAUCACCAUGAAAGUAAUCCAAGGCCUAUAUAGUGGGGUCACCACAGUGGAACUGGACACCCUGGCUGCUGAAACAGCUGCGACCUUGACCACGAAGCACCCUGACUAUGCCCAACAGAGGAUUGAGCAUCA` has a bound/input enrichment of 0.126 ratio.
The bound/input enrichment of `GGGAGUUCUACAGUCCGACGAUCCAGCGCCGAGGCCGCGGUUUCCCCCUGGGCCUCCCCAGCCGCCGCCAUGGGCAUCAAAUUUUUAGAAGUUAUCAAACCAUUCUGUGCAGUUCUACCAGAAAUUCAGAAGCCUGAAAGGAACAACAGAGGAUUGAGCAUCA` is reported as 1.11 ratio.
`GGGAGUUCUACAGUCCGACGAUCCUGAAAAACACAGAUAUCAAAGUUGUUGACUUUGGAAGUGCAACGUAUGACGACGAACAUCACAGUACUUUGGUGUCUACCCGGCACUACAGAGCUCCCGAGGUCAUUUUGGCUUUAGGUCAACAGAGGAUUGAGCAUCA` has a bound/input enrichment of 0.243 ratio.
`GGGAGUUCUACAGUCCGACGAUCAAUGUGGAGUUGAGUUCCUUGGCCCGGCUUCCCAGCUUGAAUAAACUCCGGAAGUUGGAGCUUAGUGACAAUAUAAUUUCUGGAGGCUUGGAAGUCCUGGCAGAGAAAUGUCCAAAUCUUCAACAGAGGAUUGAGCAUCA` has a bound/input enrichment of 0.165 ratio.
The bound/input enrichment of `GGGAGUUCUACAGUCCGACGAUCGUGUCCUGCUUUCAACUUAAAUCACUGCAUUUUUACUACUGUUCUGUGAGCAUCAGGAUUUUAGUGCUGUGUCACCACAUGAGAGUUCAGAAGCAGCCUUUCUGUGGAGGGUGGGAAUGACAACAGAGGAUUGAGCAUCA` is reported as 0.169 ratio.

Sample 2 — method: RNA Bind-n-Seq; form: RNA; sample: in vitro; concentration: 365 nM; reference: no-protein control; reading: higher = stronger binding
Target: RNA binding protein fox-1 homolog 2, RRM domain, GST-SBP tag (RBFOX2, Homo sapiens, UniProt O43251-10, residues 100-194)
Notes: natural RNA segment, single round, ends assumed
Construct (chain): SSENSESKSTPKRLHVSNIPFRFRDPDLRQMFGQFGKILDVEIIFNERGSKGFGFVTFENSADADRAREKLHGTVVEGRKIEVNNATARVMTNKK
`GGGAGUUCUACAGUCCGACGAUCCCUUUGAGCAGUGCUCUCAAGAGCUCCGUGCCUGUCCACAAUGACCUAGAGUGCAUCCUGCUCAUUGUCAGUGUAGCCCCUCGCCCCUAUAUUCAUCCAGGAUACUUGGAUGGAAUUCUCGGGUGCCAA` — result for “RBNS enrichment (R)”: 0.172.
`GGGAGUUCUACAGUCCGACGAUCGUCAUAUAUGCUUAUUGUUUUGUUCCAUGUGAUUCUUGUUUCCCUAUGCUCUUUAAUGGAGAAUCUGUUGUCGAAAGGAAGAUGGCCAGAAAUAAGAACUUCAGGACCACUGGAAUUCUCGGGUGCCAA` — result for “RBNS enrichment (R)”: 1.17.
`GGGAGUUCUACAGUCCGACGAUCUUUAUCUUGUUCUUCAGUUAACAUCUGUGUUCUGUGGGGGAGGGAGGGAGUCAUGUGUGUUUGAAGGGAGAAGUCCAUUGAGUCUCUAAUUGACUUUUCUUUCAGCUCCAUGGAAUUCUCGGGUGCCAA` — result for “RBNS enrichment (R)”: 0.33.
`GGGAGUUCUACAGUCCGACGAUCCACACAUAAAAGAGAGAGGGAGUAUGUUUGUGUGUUUCAUGUGCAUACAUAUAUACACACUCCUAACAUUCCCACUCGGGAGGCCAAGGCCAGCACAUCUCUAAAUUUGAUGGAAUUCUCGGGUGCCAA` — result for “RBNS enrichment (R)”: 0.359.
Under “RBNS enrichment (R)”, `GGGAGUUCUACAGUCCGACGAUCCUGCAUCUUUAUAUUUUUAAAAUUGUAUUGCUGCUCAAGAAUGGUACCCUCUUGUCAAAAAGGCAUACAUUCAUAAUUGUACAUUCAGCAUUGUAAAUAAUCUUAUGAAAUGGAAUUCUCGGGUGCCAA` is recorded as 0.89.
Under “RBNS enrichment (R)”, `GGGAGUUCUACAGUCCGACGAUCUCCUACCCAUACUUCCUUCUCUGAGACUAUUCCAUGGGACCCACUUCCCUCUGGGUUCUCCUUUCCCCAGACAGCUGUAGGGGCACAUGGUAGGGAAGCAGCAUAGGCCCUGGAAUUCUCGGGUGCCAA` is recorded as 0.301.
`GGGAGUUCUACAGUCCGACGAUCGGCCUGGCUAGGAGCCCUUCAGGCCUCUCUCUCCUCUGUCCACCCUUGGCCUGUCUCAUCCCUGUGGGUCCCAGCUCAGCUCUGGCCACCCCGGGCUCUCUGCUGUACAUUGGAAUUCUCGGGUGCCAA`: “RBNS enrichment (R)” 0.29.
For `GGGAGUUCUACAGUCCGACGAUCCCUCAGCCUGUCUGUGGCAGAGCCUGCACCAAAACCCAGAGCUUCUUCCCUCCGUGAGGGCCACGCUGUCACCACAGUCCUCCCAGAUGGGUUUUGGAUUAGCAUCAGUCUGGAAUUCUCGGGUGCCAA`, “RBNS enrichment (R)” read 0.692.
Under “RBNS enrichment (R)”, `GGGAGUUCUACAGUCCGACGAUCUUCUAAGCCAGAAGCAAACAAGAAUUACUGAAAUCUACCCCAUGAAUACUUGGAAGGCAGUAAUUGUGAGUGACACCUCAGUUCAUCAACCCCUUAAUAAUAUCAGCUUAUGGAAUUCUCGGGUGCCAA` is recorded as 0.387.

Sample 3 — method: protein binding microarray; form: double-stranded DNA, one strand shown; sample: in vitro; concentration: not given; reference: not given; reading: higher = stronger binding
Target: Histone acetyltransferase KAT6A, winged helix 1, GST fusion (KAT6A, Homo sapiens, UniProt Q92794, residues 1-85)
Notes: 8-mer, flanks averaged, mean of 2 arrays, mostly near background
Construct (chain): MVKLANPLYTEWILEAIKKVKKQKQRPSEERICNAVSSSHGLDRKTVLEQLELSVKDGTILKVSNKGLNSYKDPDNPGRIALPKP
`ATTCGTCC` has an E-score of 0.0158.
The E-score of `CATCTCGC` is reported as 0.0913.
The E-score of `AACCACGG` is reported as 0.134.
`AAATAACC` gave an E-score of -0.186.
With `CCAGTGGG` the E-score was -0.173.
The E-score of `ACGTACCT` is reported as -0.238.
For `GCATTTCA`, the E-score was -0.0943.
For `AACCGAGA`, the E-score was -0.0762.
`AGTGGTTG` has an E-score of -0.279.
`ATTCCGGG` has an E-score of -0.0259.
`GGATTACA` gave an E-score of -0.171.
With `GAGCAGAC` the E-score was 0.0329.
For `ACTGGAAC`, the E-score was -0.13.
`CACCAGAA` gave an E-score of -0.202.
`GGTGATAA` gave an E-score of -0.00311.
`ATCAAATG` gave an E-score of -0.0963.
With `AATGGGTC` the E-score was -0.134.
`GACCGTCA` has an E-score of 0.0817.
`AGAGGGGG` gave an E-score of -0.208.
For `AGGTTCGG`, the E-score was 0.0275.
`ACGACTCC` has an E-score of -0.158.

Sample 4 — method: universal PBM; form: double-stranded DNA, one strand shown; sample: in vitro; concentration: 600 nM; reading: higher = stronger binding
Target: Sal-like protein 4, full length isoform A (SALL4, Homo sapiens, UniProt Q9UJQ4, residues 1-1053)
Chain of UniProt Q9UJQ4 (whole entry, looked up): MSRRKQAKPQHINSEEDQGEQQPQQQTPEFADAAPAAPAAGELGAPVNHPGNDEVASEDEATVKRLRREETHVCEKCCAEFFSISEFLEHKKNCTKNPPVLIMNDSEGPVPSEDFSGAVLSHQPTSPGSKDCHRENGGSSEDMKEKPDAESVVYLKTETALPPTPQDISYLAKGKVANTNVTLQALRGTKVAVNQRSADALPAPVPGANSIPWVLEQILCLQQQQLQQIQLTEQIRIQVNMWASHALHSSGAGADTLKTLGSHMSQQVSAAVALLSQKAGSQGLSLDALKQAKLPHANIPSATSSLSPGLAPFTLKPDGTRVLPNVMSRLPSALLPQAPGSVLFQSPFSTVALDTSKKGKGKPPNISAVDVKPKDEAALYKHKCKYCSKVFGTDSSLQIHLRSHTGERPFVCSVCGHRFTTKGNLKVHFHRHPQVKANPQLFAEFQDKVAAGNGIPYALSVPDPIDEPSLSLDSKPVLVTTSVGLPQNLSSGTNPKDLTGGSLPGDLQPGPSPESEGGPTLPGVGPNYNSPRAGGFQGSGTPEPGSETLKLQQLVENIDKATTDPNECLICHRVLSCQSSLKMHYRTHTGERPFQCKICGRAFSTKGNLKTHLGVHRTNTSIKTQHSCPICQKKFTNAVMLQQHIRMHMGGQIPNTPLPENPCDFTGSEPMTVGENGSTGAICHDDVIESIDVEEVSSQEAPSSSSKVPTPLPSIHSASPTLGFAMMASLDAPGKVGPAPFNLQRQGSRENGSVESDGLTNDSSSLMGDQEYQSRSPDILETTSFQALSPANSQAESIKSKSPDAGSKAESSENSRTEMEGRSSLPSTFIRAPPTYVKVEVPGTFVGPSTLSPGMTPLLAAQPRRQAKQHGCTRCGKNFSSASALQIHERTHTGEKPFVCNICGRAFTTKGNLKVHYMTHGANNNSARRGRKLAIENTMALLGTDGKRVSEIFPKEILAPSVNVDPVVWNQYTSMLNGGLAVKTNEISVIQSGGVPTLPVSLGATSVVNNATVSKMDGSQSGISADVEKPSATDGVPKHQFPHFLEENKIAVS
Notes: 8-mer, flanks averaged, mean of replicates
`ACACACCA` gave an E-score of -0.0186.
With `CTGTCATC` the E-score was -0.0642.
With `AAGTACTA` the E-score was 0.218.
With `GCCACCTA` the E-score was -0.169.
`AGATAGCA` gave an E-score of 0.102.
`CCATGACA` gave an E-score of 0.0243.
For `CTTGCGGA`, the E-score was -0.142.
With `TCCCCCCA` the E-score was -0.205.
The E-score of `GCGGAGAA` is reported as -0.171.
For `ACCTCGCG`, the E-score was -0.267.
`ATCACTGG` has an E-score of 0.0121.
`GGGCCAAC` has an E-score of -0.214.
`GTGCAAAA` gave an E-score of 0.15.
For `AAACACCC`, the E-score was -0.134.
The E-score of `CACACCGC` is reported as -0.254.
The E-score of `AGTGATTC` is reported as 0.034.
`CGGATCAC` gave an E-score of -0.148.
`CCACATAG` gave an E-score of -0.175.
The E-score of `AGTAAGTA` is reported as 0.246.
For `AGGGAGCC`, the E-score was -0.425.
With `AAACTTTA` the E-score was 0.246.
`ATCGTGTC` gave an E-score of 0.0058.
`CTTCAAGA` has an E-score of 0.248.
For `AGCTAGTA`, the E-score was 0.116.
The E-score of `CACCCATG` is reported as -0.024.

For quick reference, copied from above (sample 4):
`ACACACCA` gave an E-score of -0.0186.
With `CTGTCATC` the E-score was -0.0642.
With `AAGTACTA` the E-score was 0.218.
With `GCCACCTA` the E-score was -0.169.
`AGATAGCA` gave an E-score of 0.102.
